Experimental data pooled from the literature.
Lines come from different studies, so protocols differ. ± marks the error that the study gave.
Medium: plasma

SMILES | test system | setting | Cmax [ng/mL]
O=C1N=C(N2CCOCC2)CN1c1ccc(Cl)cc1 | beagle dog, both sexes | oral, 30 mg/kg, tablets, fasted, day 0 | 19800
CS(=O)(=O)Nc1ccc(C(=O)O[C@@H](Cc2c(Cl)c[n+]([O-])cc2Cl)c2ccc(OC(F)F)c(OCC3CC3)c2)cc1OCC1CC1 | human | inhaled, 100 µg once daily, day 7, single-dose dry powder inhaler | 0.165
Cc1cc(Nc2cc3ncccc3c(N[C@@H]3C[C@H]4CC[C@@H](C3)N4CCC#N)n2)n[nH]1 | beagle dog, female | oral, 10 mg/kg/day, last day of 39 weeks | 11.5
Cn1c(C(F)(F)F)cc(=O)n(-c2cc(Oc3cccnc3OCC(=O)O)c(Cl)cc2F)c1=O | beagle dog, male | oral capsule, 300 mg/kg/day epyrifenacil, week 13, 90-day study | 2860
CCCC[C@H](NC(C)=O)C(=O)N[C@H]1CCC(=O)NC[C@@H](C(=O)N[C@@H](Cc2c[nH]c3ccccc23)C(N)=O)NC(=O)[C@H](CCCNC(=N)N)NC(=O)[C@@H](Cc2ccccc2)NC(=O)[C@H](Cc2c[nH]cn2)NC1=O | beagle dog, female | subcutaneous, 40.0 mg/kg daily, day 14 | 1280
CCCOc1ccc([C@H]2CNC(=O)N2c2ccc3[nH]cnc3c2)cc1 | human | oral, 1800 mg, single dose, fasted, healthy volunteers | 9680
Cc1nc2cccc(OCC(C)(C)C(=O)NC(C)C)c2c(N)c1C(=O)O | female Sprague-Dawley rat | oral gavage, 30 mg/kg, day 7 | 77.1 ± 41.7
CNCc1ccc(-c2[nH]c3cc(F)cc4c3c2CCNC4=O)cc1 | human, fed high-fat meal | oral, 300 mg, cycle 1 day 1, single dose, median | 393
